Measurements pooled from the literature.
Lines come from different studies, so protocols differ.
Target: Cytochrome P450 2C9 (CYP2C9, Homo sapiens, UniProt P11712)
UniProt P11712, sequence (whole entry, looked up): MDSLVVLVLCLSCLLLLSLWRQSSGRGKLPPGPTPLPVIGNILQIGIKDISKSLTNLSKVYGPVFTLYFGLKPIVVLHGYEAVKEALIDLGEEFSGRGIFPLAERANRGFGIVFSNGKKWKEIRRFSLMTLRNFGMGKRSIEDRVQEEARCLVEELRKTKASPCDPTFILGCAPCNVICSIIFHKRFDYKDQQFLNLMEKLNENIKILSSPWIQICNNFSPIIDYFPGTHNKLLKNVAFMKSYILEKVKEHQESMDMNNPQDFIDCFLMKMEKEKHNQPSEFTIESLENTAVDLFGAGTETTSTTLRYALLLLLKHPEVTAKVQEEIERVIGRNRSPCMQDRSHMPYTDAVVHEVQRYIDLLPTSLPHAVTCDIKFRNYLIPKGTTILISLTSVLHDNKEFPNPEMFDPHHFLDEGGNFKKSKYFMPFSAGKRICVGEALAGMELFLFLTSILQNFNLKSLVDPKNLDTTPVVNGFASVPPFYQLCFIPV

Structure (SMILES) | assay | system | setting | IC50 [µM]
O=C(NC1CCC(F)(F)CC1)C(c1cncnc1)N(C(=O)C(F)Cl)c1ccc(-c2cncs2)cc1 (centres unmarked) | enzyme activity, inhibitor | – | 10 (unit not given) | 15.6
CC(C)c1ccc(Cn2ccc([C@H](C)[C@](O)(Cn3cnnn3)c3ccc(F)cc3F)n2)cc1 | enzyme activity, inhibitor | human, liver microsomes | – | 4.22
COc1ccc2c(c1OCc1ccccc1)C[C@@H](C(=O)O)N(c1nc3ccc(C#N)cc3o1)C2 | enzyme activity, inhibitor | human, liver microsomes | 15 min, pH 7.4 | 31
C[C@@H](c1ccn(Cc2ccc(Cl)c(Cl)c2)n1)[C@](O)(Cn1cnnn1)c1ccc(F)cc1F | enzyme activity, inhibitor | human, liver microsomes | – | 4.3
C=CC(=O)Nc1cc(Nc2nccc(-c3cn(C)c4ccccc34)n2)c(OCC(F)(F)F)nc1N(C)CCN(C)C | enzyme activity, inhibitor | human, liver microsomes | – | > 100
O=C1c2oc3cc(O)c(O)cc3c2C(=O)c2oc3cc(O)c(O)cc3c21 | enzyme activity, inhibitor | human, liver microsomes | 1 h, pH 7.4 | 27.5
Cc1cc(/C=C/C#N)cc(C)c1Oc1nc(NC2CCN(Cc3ccc(S(C)(=O)=O)cc3)CC2)nc2ncccc12 | enzyme activity, inhibitor | – | 10 min | 6.76
CCC(=O)N(C)c1ccc(Cl)c(Cl)c1 | enzyme activity, inhibitor | human, liver microsomes | 5 min | > 25
C[C@](C(=O)NC1CCOCC1)(c1cncnc1)N(C(=O)[C@H](F)Cl)c1ccc(OC(F)(F)Cl)cc1 | enzyme activity, inhibitor | – | 10 (unit not given) | > 50
O=c1nc(NO)ccn1[C@@H]1O[C@H](CO)[C@@H](O)[C@H]1O | – | – | 20 min, pH 7.4 | > 100
C[C@@H](c1ccn(Cc2ccc(I)cc2)n1)[C@](O)(Cn1cnnn1)c1ccc(F)cc1F | enzyme activity, inhibitor | human, liver microsomes | – | 2.37
Cc1c(NC(=O)c2ccc3c(c2)CC[C@@H]2C[C@@](O)(C(F)(F)F)CC[C@@]32Cc2ccccc2)ccc[n+]1[O-] | enzyme activity, inhibitor | human, liver microsomes | – | 21
O=C(O)C(O)Cc1ccc(O)c(O)c1 (centres unmarked) | inhibitor | – | – | 99
NC(=O)c1c(F)ccc(OCc2nc3cc(Cl)cnc3s2)c1F | enzyme activity, inhibitor, fluorescence | – | – | > 33.7

Repeated from above:
Structure (SMILES) | assay | system | setting | IC50 [µM]
Cc1c(NC(=O)c2ccc3c(c2)CC[C@@H]2C[C@@](O)(C(F)(F)F)CC[C@@]32Cc2ccccc2)ccc[n+]1[O-] | enzyme activity, inhibitor | human, liver microsomes | – | 21
COc1ccc2c(c1OCc1ccccc1)C[C@@H](C(=O)O)N(c1nc3ccc(C#N)cc3o1)C2 | enzyme activity, inhibitor | human, liver microsomes | 15 min, pH 7.4 | 31
